{"data": "Values quoted from earlier work that unrelated publications cite", "note": "Compare with care: the assays were run in different laboratories."}
{"SMILES": "Cc1ccccc1-c1cc(N2CCNCC2)ncc1N(C)C(=O)C(C)(C)c1cc(C(F)(F)F)cc(C(F)(F)F)c1", "system": "healthy volunteers, plasma", "setting": "oral, 300 mg, fed, fixed-dose combination, together with: palonosetron 0.5 mg", "quantity": "AUC(0-inf)", "value": "6700 ng·h/mL"}
{"SMILES": "COCCOCCOCCOCCC(=O)NCc1cc(CNC(=O)CCOCCOCCOCCOC)cc(-c2cc3cc4nc(c(OC)c5[nH]c(cc6nc(cc2[nH]3)CC6(C)C)cc5-c2cc(CNC(=O)CCOCCOCCOCCOC)cc(CNC(=O)CCOCCOCCOCCOC)c2)CC4(C)C)c1", "system": "DMF", "setting": "room temperature", "quantity": "Qy absorption maximum", "value": "729 nm"}
{"SMILES": "O=C1c2ccccc2-c2c1c1ccc([N+](=O)[O-])cc1c(=O)n2C[C@H](O)CO", "tested on": "OVCAR-3", "test": "cell growth", "setting": "ovarian cancer panel", "quantity": "GI50", "value": "0.309 µM"}
{"SMILES": "CC(=O)O[C@H]1C2=C(C(=O)C(OC(=O)c3ccccc3)=C(C(C)C)C2=O)[C@@]2(C)CCCC(C)(C)[C@@H]2[C@@H]1OC(=O)c1ccccc1", "tested on": "HL-60", "test": "cell growth", "quantity": "GI50", "value": "≤ 5 µM"}
{"SMILES": "Cc1ccccc1-c1cc(N2CC[N+](C)([O-])CC2)ncc1N(C)C(=O)C(C)(C)c1cc(C(F)(F)F)cc(C(F)(F)F)c1", "system": "healthy volunteers, plasma", "setting": "oral, 450 mg, single dose, together with: palonosetron 0.75 mg", "quantity": "Tmax", "value": "4.39 h"}
{"SMILES": "N=C(N)NCCC[C@@H]1NC(=O)[C@H](CCCCNC(=O)CN2CCN(CC(=O)O)CCN(CC(=O)O)CCN(CC(=O)O)CC2)NC(=O)[C@@H](Cc2ccc(O)cc2)NC(=O)[C@H](CC(=O)O)NC(=O)CNC1=O [copper-64 labelled]", "system": "mouse, U-87 MG xenograft", "setting": "1 h post injection", "quantity": "tumour uptake", "value": "~2.5 %ID/g"}
{"SMILES": "CCC(=O)O[C@@H]1[C@@H](OC(C)=O)C2=C(C(=O)C(O)=C(C(C)C)C2=O)[C@@]2(C)CCCC(C)(C)[C@H]12", "tested on": "MCF7", "test": "cell growth", "quantity": "GI50", "value": "10 to 30 µM"}
{"SMILES": "C=CC(OC1OC(C(=O)O)C(O)C(O)C1O)c1ccc(OC)cc1 (stereo not shown)", "test": "glucuronidation, substrate", "system": "male rat liver", "quantity": "Km", "value": "137 µM"}
{"SMILES": "CN1CCN(c2cc(-c3ccccc3CO)c(N(C)C(=O)C(C)(C)c3cc(C(F)(F)F)cc(C(F)(F)F)c3)cn2)CC1", "system": "healthy volunteers, plasma", "setting": "oral, dose not given, netupitant-palonosetron, fasted", "quantity": "half-life", "value": "65.6 h"}
{"SMILES": "O=C1c2ccccc2-c2c1c1ccc([N+](=O)[O-])cc1c(=O)n2C[C@H](O)[C@@H](O)[C@H](O)[C@H](O)CO", "tested on": "DU-145", "test": "cell growth", "system": "prostate cancer", "quantity": "GI50", "value": "4.76 µM"}
{"SMILES": "CCC(=O)OC1=C(C(C)C)C(=O)C2=C(C1=O)[C@@]1(C)CCCC(C)(C)[C@@H]1[C@H](OC(=O)CC)[C@H]2OC(C)=O", "tested on": "MCF7", "test": "cell growth", "quantity": "GI50", "value": "10 to 30 µM"}
{"SMILES": "N=C(N)NCCC[C@@H]1NC(=O)[C@H](CCCCNC(=O)CCOCCOCCOCCOCCNC(=O)CC[C@H](NC(=O)CCOCCOCCOCCOCCNC(=O)CN2CCN(CC(=O)O)CCN(CC(=O)O)CCN(CC(=O)O)CC2)C(=O)NCCOCCOCCOCCOCCC(=O)NCCCC[C@@H]2NC(=O)[C@@H](Cc3ccccc3)NC(=O)[C@H](CC(=O)O)NC(=O)CNC(=O)[C@H](CCCNC(=N)N)NC2=O)NC(=O)[C@@H](Cc2ccccc2)NC(=O)[C@H](CC(=O)O)NC(=O)CNC1=O [indium-111 labelled]", "system": "athymic nude mice, U-87 MG glioma xenograft, tumour", "setting": "72 h post-injection", "quantity": "tumour uptake", "value": "2.18 %ID/g"}
{"SMILES": "NS(=O)(=O)c1c(F)c(F)c(S(=O)(=O)CCc2ccccc2)c(NC2CCCCCCCCCCC2)c1F", "tested on": "Carbonic anhydrase 2 (CA2, Homo sapiens, UniProt P00918)", "test": "thermal shift", "setting": "pH 7.0, 37 °C", "quantity": "Kd", "value": "0.71 µM"}
{"note": "A few entries again:"}
{"SMILES": "Cc1ccccc1-c1cc(N2CC[N+](C)([O-])CC2)ncc1N(C)C(=O)C(C)(C)c1cc(C(F)(F)F)cc(C(F)(F)F)c1", "system": "healthy volunteers, plasma", "setting": "oral, 450 mg, single dose, together with: palonosetron 0.75 mg", "quantity": "Tmax", "value": "4.39 h"}
{"SMILES": "CCC(=O)OC1=C(C(C)C)C(=O)C2=C(C1=O)[C@@]1(C)CCCC(C)(C)[C@@H]1[C@H](OC(=O)CC)[C@H]2OC(C)=O", "tested on": "MCF7", "test": "cell growth", "quantity": "GI50", "value": "10 to 30 µM"}
